Measurements of several laboratories.
A part holds a random share of what one study measured.

Set 1 — method: KINOMEscan; concentration: 10 µM; reading: lower = stronger binding; endpoint: binding (% of control)
SMILES: COc1cc(C(=O)N2CCC(N3CCN(C)CC3)CC2)ccc1Nc1ncc2c(n1)N(C)c1ccccc1C(=O)N2C
target = p38-gamma; value = 76%
target = YES; value = 100%
target = JNK2; value = 94%
target = PKAC-beta; value = 100%
target = CDK4-cyclinD3; value = 100%

Set 2 — effect on: enzyme activity; mode: inhibitor; concentration: 0.5 µM; reference: control; endpoint: remaining activity
Target: ALK tyrosine kinase receptor (ALK, Homo sapiens, UniProt Q9UM73)
Sequence of UniProt Q9UM73 (whole entry, looked up): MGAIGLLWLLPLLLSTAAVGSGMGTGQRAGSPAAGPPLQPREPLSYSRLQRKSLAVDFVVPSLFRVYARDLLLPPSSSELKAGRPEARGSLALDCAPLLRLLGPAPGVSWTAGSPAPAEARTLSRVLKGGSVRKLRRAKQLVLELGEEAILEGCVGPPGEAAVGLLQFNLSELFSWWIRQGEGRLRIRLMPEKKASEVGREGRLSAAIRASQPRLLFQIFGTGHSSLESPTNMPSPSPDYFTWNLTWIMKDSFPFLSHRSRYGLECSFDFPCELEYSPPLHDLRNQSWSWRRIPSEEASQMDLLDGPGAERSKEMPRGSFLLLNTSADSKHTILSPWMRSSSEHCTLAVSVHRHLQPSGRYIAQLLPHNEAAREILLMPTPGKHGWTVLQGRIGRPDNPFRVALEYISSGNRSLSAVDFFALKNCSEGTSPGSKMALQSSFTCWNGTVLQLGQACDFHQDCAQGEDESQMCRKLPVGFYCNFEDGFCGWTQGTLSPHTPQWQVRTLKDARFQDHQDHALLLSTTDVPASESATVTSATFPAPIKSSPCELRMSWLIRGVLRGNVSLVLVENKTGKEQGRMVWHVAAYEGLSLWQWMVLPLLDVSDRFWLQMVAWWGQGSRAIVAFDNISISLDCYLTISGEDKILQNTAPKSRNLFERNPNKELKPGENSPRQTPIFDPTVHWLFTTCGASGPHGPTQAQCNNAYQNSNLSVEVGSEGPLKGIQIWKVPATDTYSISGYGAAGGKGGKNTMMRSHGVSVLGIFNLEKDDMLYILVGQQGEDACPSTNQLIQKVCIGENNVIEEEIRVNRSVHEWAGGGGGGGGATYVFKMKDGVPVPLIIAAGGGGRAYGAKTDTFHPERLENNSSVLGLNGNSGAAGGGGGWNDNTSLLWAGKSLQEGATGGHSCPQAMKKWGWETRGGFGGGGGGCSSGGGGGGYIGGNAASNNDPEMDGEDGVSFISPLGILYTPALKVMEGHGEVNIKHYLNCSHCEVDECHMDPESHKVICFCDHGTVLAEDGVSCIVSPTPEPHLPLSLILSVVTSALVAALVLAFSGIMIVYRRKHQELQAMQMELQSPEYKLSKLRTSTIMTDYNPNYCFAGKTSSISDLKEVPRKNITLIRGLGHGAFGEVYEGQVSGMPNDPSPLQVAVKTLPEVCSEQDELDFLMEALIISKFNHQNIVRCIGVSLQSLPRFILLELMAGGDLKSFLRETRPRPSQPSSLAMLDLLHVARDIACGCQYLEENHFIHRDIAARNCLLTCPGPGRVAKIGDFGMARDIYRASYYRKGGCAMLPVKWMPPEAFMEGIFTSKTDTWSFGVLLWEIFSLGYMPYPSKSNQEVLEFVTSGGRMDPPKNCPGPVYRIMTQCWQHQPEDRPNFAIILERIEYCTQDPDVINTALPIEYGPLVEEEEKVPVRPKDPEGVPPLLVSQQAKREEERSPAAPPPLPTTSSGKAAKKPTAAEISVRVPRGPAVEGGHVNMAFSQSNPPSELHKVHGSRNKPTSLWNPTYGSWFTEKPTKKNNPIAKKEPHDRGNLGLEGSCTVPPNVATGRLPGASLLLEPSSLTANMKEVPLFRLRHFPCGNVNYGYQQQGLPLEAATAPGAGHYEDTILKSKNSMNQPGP
Structure (SMILES) = Oc1ccc(Nc2nc(-c3ccc(Cl)cc3)cs2)cc1; value = 111%
Structure (SMILES) = O=C1Cc2c([nH]c3ccc([N+](=O)[O-])cc23)-c2ccccc2N1; value = 94.2%
Structure (SMILES) = CC(C)(C)n1nc(Cc2cccc3ccccc23)c2c(N)ncnc21; value = 91.9%
Structure (SMILES) = Nc1nccc(-c2c(-c3ccc(F)cc3)ncn2C2CCNCC2)n1; value = 102%
Structure (SMILES) = COc1cc(Nc2c(C#N)cnc3cc(OCCCN4CCN(C)CC4)c(OC)cc23)c(Cl)cc1Cl; value = 66%
Structure (SMILES) = O=C1NC(=O)C(c2c[nH]c3ccccc23)=C1c1c[nH]c2ccccc12; value = 95.7%
Structure (SMILES) = Cc1ccc(NC2=CC(=O)c3sc(C)nc3C2=O)cc1; value = 105%
Structure (SMILES) = Nc1nc(Nc2ccc(S(N)(=O)=O)cc2)nn1C(=O)c1c(F)cccc1F; value = 90.1%

Mixed results
Substance = COc1ccc(-c2c(Nc3ccccn3)[nH]c3c(C4=CCCCC4)c(-c4ccccc4)nn3c2=O)cc1; test = LC-MS/MS non-compartmental; system = human, plasma; conditions = oral, 50 mg once daily, cycle 1; endpoint = AUC over dosing interval; value = 32300 ng·h/mL
Substance = MYH9 (Homo sapiens, UniProt P35579); tested on = MYH10 (Homo sapiens, UniProt P35580); test = cross-linking MS; system = cell fractions; conditions = added: DMTMM; endpoint = cross-linked residues; value = E1149 to K1256
Substance = CNC(=O)c1cc(C(=O)N[C@H]2[C@@H]3COC[C@@H]32)cc2c1O[C@H](CF)[C@H]2c1ccccc1; tested on = normal-adjacent organoid sample D; test = CellTiter-Glo; conditions = 1 µM, replicate mean; how to read = reference: DMSO; endpoint = viability; value = 96.8%
